Measured values collected from several papers.
A part holds a random share of what one study measured.

Sample 1 — technique: RNA Bind-n-Seq; molecule type: RNA; matrix: in vitro; concentration: 365 nM; reference: no-protein control; reading: higher = stronger binding
Target: RNA binding protein fox-1 homolog 2, RRM domain, GST-SBP tag (RBFOX2, Homo sapiens, UniProt O43251-10, residues 100-194)
Notes: natural RNA segment, single round, ends assumed
Construct (chain): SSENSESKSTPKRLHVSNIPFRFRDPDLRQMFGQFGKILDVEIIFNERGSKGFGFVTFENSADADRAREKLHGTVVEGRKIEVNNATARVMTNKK
Oligonucleotide	RBNS enrichment (R)
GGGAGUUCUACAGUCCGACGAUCUUUCACUACCACUGUUAUGUCACUGGGUAAAAGCCUCAAACUGUUAAAUAUAUGGGAGACUGAUUAUAAAGAAUAAAGAAUAUUUGCAUUUACUUAUGCAACUACUAAUUUGGAAUUCUCGGGUGCCAA	0.559
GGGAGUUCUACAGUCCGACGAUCCUGCCACCAGGCUCAGCCCACCCCUCCACCUCUCUCUCGAUUUCUCUCUCUCCCCCUCAGCAUCUUCCCGCUGAGAGUGGUGGGGAAGAGCCUUGUCUUCUUAGCUGUCAUGGAAUUCUCGGGUGCCAA	1.47
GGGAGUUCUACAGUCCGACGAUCGUCACAGGUAAAAUCAGUGUUGGGAAUUAUAAUUUGAGAAAAAUAUUACCCAGUAACAUUGAAUGUAGAUGGCUAAACGAUUCUUACUCAGUGUGAUGUAUAAUGAUGCAUGGAAUUCUCGGGUGCCAA	2.2
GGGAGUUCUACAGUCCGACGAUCGCAGAGUCACUAGUGGAUGCUGAAGUUACAUGAGCUACAUGUUAAAUAUUUAAAGUCUCCAAAAUAAAACACCCCAACGUUGACCUUACCCGGCUGAUGGUUAGCCCCUUUGGAAUUCUCGGGUGCCAA	0.406
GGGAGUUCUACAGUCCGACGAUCUUAAAGCCUGGAGUCUGUUAGAUUAACUACCAAAUAGGAAGCAGCCAUGGAGGUUAUUGCCUGCGUCCCAGAAUCAAGCAGUUGGGGUGCAGGAGGCUGACAUAGUGAUAUGGAAUUCUCGGGUGCCAA	0.279
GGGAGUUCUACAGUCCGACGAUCGAUGAAAACGGAGAUGGGGAAGUGGACUUCAAGGAGUAUGUUGUGCUGGUGGCUGCUCUCACAGUGGCUUGUAACAACUUCUUCUGGGAGACCAGUUGAGCACAGUCUGUUGGAAUUCUCGGGUGCCAA	0.31
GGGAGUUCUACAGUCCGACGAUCCAUGCACAGUUAUUACAAAUCAGGAGCGUUUGGAAAGUUCACUGGGACGAGUGUGAUUUUUUGUUGAGUGCAUUACAUCUUCACAUGGGGGCGGGGAGGUCUUUUCCCUGUGGAAUUCUCGGGUGCCAA	0.74
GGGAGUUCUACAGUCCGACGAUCUUAAAAAUACAUAGUCAUCCAAGGUUUUCUAAAAAUUGAAAUCAUAUGUUGGGAAUGGUAAAAAGGUUUUCAAAUGGUUUAUUUUUCCUCUUUUAUAAAUAAGUUUUACAUGGAAUUCUCGGGUGCCAA	0.909
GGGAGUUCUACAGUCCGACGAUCAUAAUGAAGAGAAGAAGGACAGACGCAAAGAAGAAAAGGAUAGUCUCAAGAUUGCAACAGGGAGCAGAACUUGACACUUACAUUUUUUUAAACCUGAUUUUUGUUUUCAAUGGAAUUCUCGGGUGCCAA	0.98
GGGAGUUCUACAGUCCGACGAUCCCUGUGUUAUUGAAUGGACAGAGGCCUUGAAGGCCACUCUGCUCUCCCUCUUCUGCCUUCUUCUCCUCUCCCCUCCGAGAGGGGCAGCCAGGAACUGCAACGGACUCACAUGGAAUUCUCGGGUGCCAA	0.347
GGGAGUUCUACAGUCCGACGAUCAAAAGGCCUCUCUUCUCAUCUGGUGCCAAAGGUUCCGUUGCAGCUUUUUACAACCAUCCGGUGUGGUUUGGAGGAUUUGUUUUUUUUUUUUCCCAACAGAAAAGAACAGCUGGAAUUCUCGGGUGCCAA	0.363
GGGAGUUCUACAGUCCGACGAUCACUAGCCUGCCACUCCCAAUCACACACAGCAGAUGUCAGUGCUGUGCUAAUAUUAGCUGCAUUUCCUGCAGGGCAGGGAUGCGACCUUGCACAUGCUAGGCAAGCUCUCUUGGAAUUCUCGGGUGCCAA	0.919

Sample 2 — technique: universal PBM; molecule type: double-stranded DNA, one strand shown; matrix: in vitro; concentration: 600 nM; reading: higher = stronger binding
Target: Sal-like protein 4, full length isoform A (SALL4, Homo sapiens, UniProt Q9UJQ4, residues 1-1053)
Chain of UniProt Q9UJQ4 (whole entry, looked up): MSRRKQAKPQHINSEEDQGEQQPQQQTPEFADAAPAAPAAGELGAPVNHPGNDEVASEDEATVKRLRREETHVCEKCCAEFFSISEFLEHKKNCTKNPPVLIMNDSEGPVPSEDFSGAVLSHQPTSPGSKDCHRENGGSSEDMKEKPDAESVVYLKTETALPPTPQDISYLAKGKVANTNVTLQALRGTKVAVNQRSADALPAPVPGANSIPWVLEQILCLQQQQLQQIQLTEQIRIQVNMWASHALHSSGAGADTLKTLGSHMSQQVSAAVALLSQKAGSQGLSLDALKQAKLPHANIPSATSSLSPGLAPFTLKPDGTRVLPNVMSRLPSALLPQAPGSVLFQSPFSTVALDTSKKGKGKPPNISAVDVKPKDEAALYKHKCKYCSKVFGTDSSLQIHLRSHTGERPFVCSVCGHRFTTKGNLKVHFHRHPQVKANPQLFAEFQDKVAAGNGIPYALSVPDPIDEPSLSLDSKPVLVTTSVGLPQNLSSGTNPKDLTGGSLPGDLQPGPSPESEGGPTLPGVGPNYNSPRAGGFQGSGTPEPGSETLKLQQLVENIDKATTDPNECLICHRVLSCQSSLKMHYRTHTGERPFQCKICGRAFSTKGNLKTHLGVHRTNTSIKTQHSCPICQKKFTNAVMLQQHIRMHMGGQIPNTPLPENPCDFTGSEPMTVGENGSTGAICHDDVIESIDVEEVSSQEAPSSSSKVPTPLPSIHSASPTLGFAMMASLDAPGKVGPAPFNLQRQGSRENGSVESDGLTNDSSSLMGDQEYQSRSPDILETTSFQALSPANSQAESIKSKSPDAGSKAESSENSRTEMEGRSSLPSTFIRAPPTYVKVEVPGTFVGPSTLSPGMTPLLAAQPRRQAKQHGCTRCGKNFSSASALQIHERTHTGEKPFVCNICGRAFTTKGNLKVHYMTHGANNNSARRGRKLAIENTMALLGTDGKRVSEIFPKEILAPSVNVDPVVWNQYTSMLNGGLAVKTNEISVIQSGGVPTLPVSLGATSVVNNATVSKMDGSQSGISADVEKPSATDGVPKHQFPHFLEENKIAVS
Notes: 8-mer, flanks averaged, mean of replicates
Oligonucleotide	E-score
AAGTCGAA	-0.00886
GTGGCACA	-0.204
GCTGGGCC	-0.426
TACAACAA	0.209
ATGGAATA	0.286
AATCCTAG	0.121
GAATTGGA	0.105
TCGTAAGA	-0.0332
ACGGTGCA	-0.0572
ACAGCGGA	-0.13
GAACCTCA	-0.0287
GCCCTTGA	-0.147
AAAGGGAT	0.186
AAAGTCTG	0.0915
ATTAATAA	0.464
TCTCGCCA	-0.15

Sample 3 — technique: RNA Bind-n-Seq; molecule type: RNA; matrix: in vitro; concentration: 1 µM; notes: whole 134-nt RNA, ends assumed; added: 150 mM KCl; reference: input library; reading: higher = stronger binding
Target: Ras GTPase-activating protein-binding protein 1, RRM domain (G3BP1, Homo sapiens, UniProt Q13283)
Chain of UniProt Q13283 (whole entry, looked up): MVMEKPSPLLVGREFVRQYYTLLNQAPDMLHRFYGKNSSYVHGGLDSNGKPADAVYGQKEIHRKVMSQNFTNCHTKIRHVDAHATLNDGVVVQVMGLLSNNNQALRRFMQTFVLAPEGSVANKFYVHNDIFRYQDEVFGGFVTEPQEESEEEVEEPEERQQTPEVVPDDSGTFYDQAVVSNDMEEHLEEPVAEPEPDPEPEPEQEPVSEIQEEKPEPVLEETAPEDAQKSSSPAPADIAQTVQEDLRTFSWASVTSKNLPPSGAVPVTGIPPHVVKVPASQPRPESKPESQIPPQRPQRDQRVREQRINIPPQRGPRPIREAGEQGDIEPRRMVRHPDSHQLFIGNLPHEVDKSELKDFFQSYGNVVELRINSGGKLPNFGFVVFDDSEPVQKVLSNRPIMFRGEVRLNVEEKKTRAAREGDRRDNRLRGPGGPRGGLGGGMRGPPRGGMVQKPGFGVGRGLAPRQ
Oligonucleotide	log2 enrichment
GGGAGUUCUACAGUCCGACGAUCCACAGACAACACGCACCCACACAGACACAGAGGGACGGGGUUGGGAUGGGGACAGGGUGCACAGCAGGGCGGGGUAGGACCCCAGCCCCUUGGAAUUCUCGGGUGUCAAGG	0.383
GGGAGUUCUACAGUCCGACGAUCAAAAUGCAGGUGGGCAUCUUUGGGAAGUGGGGCAAGGGGGGGAUAGGGAGGGGGGUAACACUUUGGGAACAGGUGGUCCCAGGUCGUUUCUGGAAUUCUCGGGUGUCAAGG	-0.437
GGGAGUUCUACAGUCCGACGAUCGCAGGAAGUAAAAACAAAUGGAAAUGCUUCGGAUAGGGGCAGGGGUGGGGGUUGCUAAGGAAAGGGUGGGAUGGGAGUGGGUAAAGAGUUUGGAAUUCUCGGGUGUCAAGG	0.915
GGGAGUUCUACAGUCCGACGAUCACCAUGCAGGUGGGCAUCUUUGGGAAGUGGGGCAAGGGGGGGAUAGGGAGGGGGGUAACACUUUGGGAACAGGUGGUCCCAGGUCGAAACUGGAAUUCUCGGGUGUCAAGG	-0.665
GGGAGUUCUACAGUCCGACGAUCGCAGGAAGUAAAAACAAAUGGAAAUGCUUCGGAUAGUGGCAGGGGUGGGGGUUGCUAAGGAAAGCGUGGGAUGGGAGUGGGUAAAGAGUUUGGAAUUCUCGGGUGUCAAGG	0.961
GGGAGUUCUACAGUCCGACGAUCUAACUUUAGAAGAGGAUCUGAUGGAUAUGGCAGUGGACGUGGAUUUGGGGAUGGCUAUAAUGGGUAUGGAGGAGGACCUGGAGGUGGCAAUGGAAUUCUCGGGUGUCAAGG	-0.787
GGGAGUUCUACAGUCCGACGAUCUCCUCAAGUCCUGUGCUACACAUCGUAUGUACCGAAUCGGUGGGUGGGUGGGAAAGUAUUAUGUUACGCCGUUCGGAUCUGCACUUCCAGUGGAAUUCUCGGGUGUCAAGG	0.373
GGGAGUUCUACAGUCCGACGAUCGCAGGAAGUAAAAACAAAUGGAAAUGCUUCGGAUAGUGGCAGGGGUGGGGGUUGCUAAGGUAAGGGUGGGAUGGGAGUGGGUAAAGAGUUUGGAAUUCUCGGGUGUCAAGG	1.24
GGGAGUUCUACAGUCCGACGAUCGUCCUGUGCUACACAUCGUAUGUACCGAAUCGGGGUUUUUGGUUUUUGGGGUUUUUGGAAAGUAUUAUGUUACGCCGUUCGGAUCUGCACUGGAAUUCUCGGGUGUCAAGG	-0.23
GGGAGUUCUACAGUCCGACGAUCUUCUCCUGCCCCGAAGCUCGCUGUGCGUGUGCGUGUGUGUGUCCCUCCGCCAACGCCGCCACCUCAGCCCGGCAAAUGAACUCCGUCCGAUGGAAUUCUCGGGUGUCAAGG	-0.175

Sample 4 — technique: aptamer microarray, sandwich; molecule type: DNA with 2'F-ANA; matrix: in vitro; concentration: 200 nM; added: Cy3 exosite-II aptamer, 400 nM; reading: higher = stronger binding; oligonucleotide: GGTTGGTGTGGTTGG
Target: Prothrombin, mature alpha-thrombin (F2, Homo sapiens, UniProt P00734)
Notes: whole 15-mer aptamer, many near background
Modification	mean fluorescence intensity
2'F-ANA at 1 2 3 6 7 8 9 11 12 13 14	72.9 a.u.
2'F-ANA at 3 6 12 13	1200 a.u.
2'F-ANA at 1 2 3 4 5 7 8 9 10 12 13	48.6 a.u.
2'F-ANA at 1 3 5 6 8 9 10 11 12 13	47.3 a.u.
2'F-ANA at 3 10 11 12 15	600 a.u.
2'F-ANA at 1 4 5 7 9 10 12	45.9 a.u.
2'F-ANA at 2 3 4 6 8 9 11 14 15	205 a.u.
2'F-ANA at 2 3 5 9 11 12 15	177 a.u.
2'F-ANA at 2 5 6 7 9 10 15	64.8 a.u.
2'F-ANA at 1 3 5 11 12 14 15	49 a.u.
2'F-ANA at 1 3 4 5 6 8 9 11 12	108 a.u.
2'F-ANA at 7 10 11 14 15	103 a.u.
2'F-ANA at 6 7 10 11	156 a.u.
2'F-ANA at 2 13 14 15	123 a.u.
2'F-ANA at 2 3 4 5 6 7 10 12 15	52.3 a.u.
2'F-ANA at 3 4 5 6 8 10 11 14	47.2 a.u.
2'F-ANA at 3 4 6 8 9 10 12 13	219 a.u.

Excerpt of the above (sample 4):
Modification	mean fluorescence intensity
2'F-ANA at 1 2 3 4 5 7 8 9 10 12 13	48.6 a.u.
2'F-ANA at 6 7 10 11	156 a.u.
2'F-ANA at 1 3 5 11 12 14 15	49 a.u.
2'F-ANA at 2 3 5 9 11 12 15	177 a.u.
2'F-ANA at 2 3 4 5 6 7 10 12 15	52.3 a.u.
2'F-ANA at 1 3 5 6 8 9 10 11 12 13	47.3 a.u.
2'F-ANA at 3 4 5 6 8 10 11 14	47.2 a.u.
2'F-ANA at 2 5 6 7 9 10 15	64.8 a.u.
